Assay results gathered from unrelated publications.
Each numbered part is a random draw from the data of one study; scales do not carry over between parts. Substitutions count along the parent as printed.

Set 1
Target: Histone acetyltransferase KAT6A, both winged helices, GST fusion (KAT6A, Homo sapiens, UniProt Q92794, residues 1-181)
Method: protein binding microarray
Molecule type: double-stranded DNA, one strand shown
Medium: in vitro
Concentration: not given
Setting: 8-mer, flanks averaged, mean of 2 arrays, mostly near background
Reference: not given
Direction: higher = stronger binding
Residues (chain): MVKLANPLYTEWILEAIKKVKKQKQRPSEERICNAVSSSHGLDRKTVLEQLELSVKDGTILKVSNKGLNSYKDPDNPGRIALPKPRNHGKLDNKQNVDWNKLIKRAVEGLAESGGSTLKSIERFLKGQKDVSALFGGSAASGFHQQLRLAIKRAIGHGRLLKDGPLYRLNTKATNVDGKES
Oligonucleotide | E-score
ACACAAAT | -0.0684
CCTCCCCA | -0.0719
GCATGTTA | 0.136
ACCTGGAT | -0.195
AGTAACGC | 0.00345
GGATAGTA | -0.0934
ATACGATG | -0.00358
GACGAACC | 0.0862
AATGCAAC | -0.218
GCCTCGCC | 0.0234
GAGGAGTA | -0.185
AGCTCGAA | -0.025
CCTCGGCC | 0.103
AATCTGGT | -0.167
AATGATAG | 0.0991
CTGTGCGA | 0.0146
AAGTGGGC | -0.043
AACCTACT | -0.0991
AGCTAGAA | -0.172
ACCTAGCT | -0.291
CCGCTAGG | 0.215
CGGTGAAG | 0.109
AAGATCCA | -0.175
GGAAAGCC | -0.0194
ACCCTTAT | -0.0329

Set 2
Target: RNA binding protein fox-1 homolog 2, RRM domain, GST-SBP tag (RBFOX2, Homo sapiens, UniProt O43251-10, residues 100-194)
Method: RNA Bind-n-Seq
Molecule type: RNA
Medium: in vitro
Concentration: 365 nM
Setting: natural RNA segment, single round, ends assumed
Reference: no-protein control
Direction: higher = stronger binding
Residues (chain): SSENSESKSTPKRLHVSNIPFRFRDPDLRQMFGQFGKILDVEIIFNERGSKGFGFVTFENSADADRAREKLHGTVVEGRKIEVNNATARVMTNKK
Oligonucleotide | RBNS enrichment (R)
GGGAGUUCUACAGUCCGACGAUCGGGUCCCAAAUAUGAUAAUCACGUGGCACCUCUGGCAUUGCUCCCUUGGGCUGUCACUGGGGACUGGCAGUGCCUAGUGAGAGAGAGCAUCAUACUUCAUGAUGUCAGAGUGGAAUUCUCGGGUGCCAA | 0.492
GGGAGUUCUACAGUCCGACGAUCAAGGAAAAAUCUGAGGAAACCCUUAUAUUUUCCAACAGGGUUCCUCUGUGUAGCUUUGCUUAUCCUGGAACUCGAUUUGUUGACCAGGCUGGCCUUGAAUUCUCAAAAAUUGGAAUUCUCGGGUGCCAA | 0.354
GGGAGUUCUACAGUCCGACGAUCACCUUGUGCAACGUUCCCCAACACUUCCACAUACAGAAAUUAUUUUCACUCUAUCCCUGCUUCAGUUUUUGCAGAUUAACAGUUCUAUUAGUGAUUUGGAAAGUUAACAGUGGAAUUCUCGGGUGCCAA | 0.359
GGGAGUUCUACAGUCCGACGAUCCCUCUCAAAUAGCUGGGCUUACAGGCAUGAGCCACCACACCUGGCCAGGAUUUGGUUGUUUAAAUAUAAAUCUGAUCACCCCCCUGCUUAGAACCCUUCUGCUUUCUAUUUGGAAUUCUCGGGUGCCAA | 0.403
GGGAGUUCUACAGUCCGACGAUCCUGCGGGCUCUCUCCCCGACACAUUUGUUAAAAUCAAACCUGAAUAAAACUACAAGUUUAAUAUGAAGCCCCCAACUCAGCUGCUUAUUUGAAUUAAAUGGGUGUAUUUGUGGAAUUCUCGGGUGCCAA | 0.766
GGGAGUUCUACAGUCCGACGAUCGAUAUGAAGACCUCGUUCAACUUUGCAUAACACGUAGAGGUAAUAGCUAGGUGAUAGACAUUUUCAAAAAUUGCCUGACUGGCCAAGUUACAAGGAUGCCUCUCCACACUUGGAAUUCUCGGGUGCCAA | 0.274
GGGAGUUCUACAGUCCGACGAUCGCCAGUCACUUCUUCCUGGGUCUGUCUGCUGCUCUCGGUCCUCUAAGCUCCCCUUGGAGUUGGAGAGGUAUCGGGGACACUGCUGGUUAGUACGUUUUGAUUUUAAACAGUGGAAUUCUCGGGUGCCAA | 0.304
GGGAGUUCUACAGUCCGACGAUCAUGCCAGCACUAGCCAGCUGGUGGGUAUUUGGAGGAAUCCUGCAUGAGGAUUGCCCAAUAAGGGGCAGGUACACAUACCUGGCAAAGUGAUGAUGAUGUGAAUUGUUUCCUGGAAUUCUCGGGUGCCAA | 3.28
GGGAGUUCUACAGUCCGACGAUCCUUCCACCUUCAUUUCCCAAGUGCUGGGGUUAUAGGUUUGCACCAUGACACCCGACUUCGCCCUCAGCUUUCCACCCCGACCCUCCCACUACAUCUCAAGUGUUACAGACUGGAAUUCUCGGGUGCCAA | 0.826
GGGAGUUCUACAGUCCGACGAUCCAAGUUUAUAUGUAAAGACAUAACUGCCCUUAGUCAUGAAAUUGUUGUGACCUCUACUUUUUGUCACUAAUAGCCUACAUUCAAGUGCCUGUGUUUUUUCAUCUUGUUUAUGGAAUUCUCGGGUGCCAA | 0.71
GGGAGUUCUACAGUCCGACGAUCAACUUUUCUUGGCUUAUAAGGUCCAAUUUCUGUGUCUGGAGGUAUAAAAAAAUUACACUGACUACUGGUGGCUUAGUACUUUAUGUUGUCUCUCACCUAAAUAGUUCCACUGGAAUUCUCGGGUGCCAA | 0.389
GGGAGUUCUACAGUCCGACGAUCAAGACAGCACUCACUGGGAUGAAGCAGGGAGCAGGGCUGCCGCCACCCACAUUCCACUCUAGUUGGGGCUUGUGACUUAGCCCUGGACUCUGUUUCUGCAGGCAAGGGACUGGAAUUCUCGGGUGCCAA | 0.553

Set 3
Target: Sal-like protein 4, full length isoform B (SALL4, Homo sapiens, UniProt Q9UJQ4-2, residues 1-616)
Method: universal PBM
Molecule type: double-stranded DNA, one strand shown
Medium: in vitro
Concentration: not given
Setting: 8-mer, flanks averaged, mean of replicates
Direction: higher = stronger binding
Oligonucleotide | E-score
AACCGAGC | -0.239
GGGAAGCA | -0.0551
GAAATGTC | 0.0459
CGCGCTGC | -0.266
AGTACACG | -0.066
CATAGATC | 0.0684
TATCTACA | 0.165
ATTGGCCA | -0.0901
AACCGTCT | -0.167
AACCAATC | -0.0377
ATAGTCTA | 0.0933
GGGCGGTA | -0.221
AACATGAC | 0.0302
ATTGGATG | 0.123
AGGGATGG | -0.145
AATCCTCT | -0.00972
CAACTGTA | 0.206

Set 4
Target: NFE2, bZIP domain (human)
Method: DHFR protein complementation
Medium: yeast
Setting: single substitutions, most at no-binding floor
Reference: wild-type JUN-FOS pair
Direction: higher = stronger binding
Parent: JUN, bZIP domain (human); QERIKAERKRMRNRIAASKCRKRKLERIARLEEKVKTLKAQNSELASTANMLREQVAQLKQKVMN; partner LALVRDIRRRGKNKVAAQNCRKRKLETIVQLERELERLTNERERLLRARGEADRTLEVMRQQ
Change | binding fitness [natural log]
S43V | -1.48
I28N | -1.31
V56S | -1.47
E32P | -1.45
A40D | -1.49
E54A | -1.38
A40S | -1.37
N42I | -1.52
A40Q | -1.18
L45F | -1.44
T48F | -1.57
T48S | -1.35
R30H | -1.38
S47H | -1.3
V56D | -1.48
L31A | -1.36
A40K | -1.36
A29G | -1.4
K39S | -1.48
V35F | -1.5
K34L | -1.25
K39I | -1.45
T48W | -1.43
A49D | -1.44
I28F | -1.45

Set 5
Target: RING finger protein unkempt homolog, zinc fingers 1-6, GST-SBP tag (UNK, Homo sapiens, UniProt Q9C0B0, residues 30-357)
Sequence of UniProt Q9C0B0 (30-357, looked up): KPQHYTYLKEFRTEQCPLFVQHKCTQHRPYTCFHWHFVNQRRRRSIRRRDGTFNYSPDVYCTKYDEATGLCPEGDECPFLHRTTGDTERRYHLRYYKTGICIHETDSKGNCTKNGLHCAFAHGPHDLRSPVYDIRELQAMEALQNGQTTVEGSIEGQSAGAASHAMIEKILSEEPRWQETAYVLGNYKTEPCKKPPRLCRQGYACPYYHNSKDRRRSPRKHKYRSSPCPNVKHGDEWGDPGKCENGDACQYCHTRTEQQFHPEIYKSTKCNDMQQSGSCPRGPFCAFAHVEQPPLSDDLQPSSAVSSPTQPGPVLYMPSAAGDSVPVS
Method: RNA Bind-n-Seq
Molecule type: RNA
Medium: in vitro
Concentration: not given
Setting: RNA with constant flanks, human-mouse chimeric sites, ends assumed
Reference: input RNA pool
Direction: higher = stronger binding
Oligonucleotide | bound/input enrichment [ratio]
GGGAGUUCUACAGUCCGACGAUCGUGACUGGUGUUAAGAUUUCCCCUCAGAAAAGAACUGCAGUAGUCACCAUAAUUCCAUCUGUGGUGAAUGCCAAUCAGAUUGUGGAGCUGGUCCCAGACCUCAGUUUAGACAUGGGAACUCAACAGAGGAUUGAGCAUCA | 0.258
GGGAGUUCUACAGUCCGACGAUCGCAGGAUCUUCUAAGUACCAGUGGGACAUUAUGAAAUCCCUUGGGCUGUCUGAUGAAGACAUAGUGAAGUUUUCUGAAGCAGAGCACUGGCUUGAUUAUUUCCCACCACUGGCCGUUCAGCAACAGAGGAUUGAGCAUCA | 0.224
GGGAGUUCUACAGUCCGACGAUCGAUCCACAGUGGUCUGAGGAACAGCUGAUUGCUGCAAAAUUUUGCUUUGCUGGCCUUGUUAUAGGGCAGACUGAAGUGGACAUCAUGAGUCAUGCCACACAAGCUAUUUUUGAAAUUCUGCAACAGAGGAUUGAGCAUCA | 0.222
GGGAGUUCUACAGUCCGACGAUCUUUCUACUGCAGCAAACGAUGCUAAGAAUUAAGGAUCCUAAGAAGUCCCUGGAUUUUUAUACGAGGGUUCUUGGACUGACGCUAAUCCAGAAGCUUGACUUCCCUGCUAUGAAGUUUUCGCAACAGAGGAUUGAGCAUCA | 0.126
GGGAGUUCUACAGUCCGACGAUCAAAGAGUGGAUAGAGUGUGCACAUGGAAUCGGUUAUACCCGGGCGAAAAAGGAGUGCAAGAUAGAGUUCGAUGACUUCGAAGAGUGCUUGCUUCGGUACAAAACGAUGAGGCGAAUGCAUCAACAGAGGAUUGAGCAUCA | 0.571
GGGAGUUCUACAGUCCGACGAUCGCAGGAUCUUCUAAGUACCAGUGGGACAUUAUGAAAUCCCUUGGCCUCUCUGAUGACGACAUAGUGAAGUUUUCUGAAGCAGAGCACUGGCUUGAUUAUUUCCCACCACUGGCUAUUCAGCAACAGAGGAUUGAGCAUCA | 0.142
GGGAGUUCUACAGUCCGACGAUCGUGUCCUUUCAACUUAAUAAAUCACUGCAUUUUUACUACUGUUCUGUGAGCAUCAGGACUGUAGCGCUGUGUCACCACAUGAGAGUUCAGAAGCAGCCUUUCUGUGGAGGGUGGGAAUGACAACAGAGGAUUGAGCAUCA | 0.2
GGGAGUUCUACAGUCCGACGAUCAAUUUCCUGUCAUACUUUUUAGACAUUGCCAUAGGUAGCCUUACUACCCUGGCCACAUUCUAGGUUUGUGUUAUUUCUCAGCUAUGGAUAUGAUCAAAUGAGAACACUGCUUAACUAAUGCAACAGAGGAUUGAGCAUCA | 1.52
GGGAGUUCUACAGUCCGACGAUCCUGUGUGUGCUGAAUAAUGAUUUGUGAAAGAAGUUUUUCCAAGCUGUAACCCAUGCUGUUAUUAUAGUUGCUGCAAAAUGUCUCUUAUGAUAUUGAUUUUAUUUGUUAACUGAAGGUCUCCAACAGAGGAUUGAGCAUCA | 0.365
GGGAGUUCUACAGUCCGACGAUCAAAUCGUGUGUGUCAAAUAUUGAAAGUGCUUUAUCUACACUCCAGUAUGUAAGCAGUAUAGUAGUUUCUUUAGAGAAUAGGUCAGCCAUUGUGAAGUACAAUGCAAGCUUAGUCACUCCACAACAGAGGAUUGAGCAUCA | 11.5
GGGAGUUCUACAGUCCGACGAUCUAAGUUAUUUUGUACAGCUUUGUAAAUUCUUAACAUUAAUUUGUAAACAUGUUUAUUUUGUUUGGGUAAUUUGGUUCAUUAAGUACAUAGCUAAGGUAAUGAACAUCUUUUUCAGUAAUUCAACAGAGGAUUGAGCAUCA | 0.444

A few entries again (set 4):
Change | binding fitness [natural log]
L31A | -1.36
A40K | -1.36
A29G | -1.4
K39S | -1.48
V35F | -1.5
K34L | -1.25
K39I | -1.45
T48W | -1.43
A49D | -1.44
